# Experimental data pooled from the literature.
# A part holds a random share of what one study measured.

# Series 1
# Target: Ras GTPase-activating protein-binding protein 1, full length (G3BP1, Homo sapiens, UniProt Q13283)
# UniProt Q13283, sequence (whole entry, looked up): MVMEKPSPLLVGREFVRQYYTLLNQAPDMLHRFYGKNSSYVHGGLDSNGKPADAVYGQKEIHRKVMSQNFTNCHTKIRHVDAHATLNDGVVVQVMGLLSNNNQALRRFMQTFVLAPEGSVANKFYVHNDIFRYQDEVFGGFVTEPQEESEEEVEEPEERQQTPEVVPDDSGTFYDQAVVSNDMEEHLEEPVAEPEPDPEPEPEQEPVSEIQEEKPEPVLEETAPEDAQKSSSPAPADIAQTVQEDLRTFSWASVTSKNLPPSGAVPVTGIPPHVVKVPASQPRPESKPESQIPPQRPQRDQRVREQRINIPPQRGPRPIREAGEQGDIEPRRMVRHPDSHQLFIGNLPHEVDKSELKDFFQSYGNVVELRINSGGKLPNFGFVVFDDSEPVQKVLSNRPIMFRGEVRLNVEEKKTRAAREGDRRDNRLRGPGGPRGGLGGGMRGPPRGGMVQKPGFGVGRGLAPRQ
# Method: RNA Bind-n-Seq
# Molecule type: RNA
# Sample: in vitro
# Tested at: 200 nM
# Notes: whole 134-nt RNA, ends assumed
# With: 150 mM KCl
# Relative to: input library
# Reading: higher = stronger binding
# All sequences stand within: GGGAGUUCUACAGUCCGACGAUC … UGGAAUUCUCGGGUGUCAAGG
Strand,log2 enrichment
CAAGUCCUGUGCUACACAUCGUAUGUACCGAAUCGGGAAAGGGAAAGGGGAAAGGGAAAGUAUUAUGUUACGCCGUUCGGAUCUGCACUU,0.391
UGGGAGGUGGAUUUUGUUUAUCUUUUUAGCUCAUUUCCAGGGGUGGGAAUUUUUUUUUAAUAUGUGUCAUGAAUAAAGUUGUUUUUGAAA,0.209
AGUCCUGUGCUACACAUCGUAUGUACCGAAUCGGAAAAAGGGGAAAAAGGGAAAAAGGAAAGUAUUAUGUUACGCCGUUCGGAUCUGCAC,-0.928
CAAGUCCUGUGCUACACAUCGUAUGUACCGAAUCGGGUUUGGUUUGGGUUUGGGGAAAGUAUUAUGUUACGCCGUUCGGAUCUGCACUUC,-0.183
ACCAUGCAGGUGAAAAUCUUUGGGAAGUGGGGCAAGGGGGGGAUAGGGAGGGGGGUAACACUUUGGGAACAGGUGGUCCCAGGUCGUUUC,0.689
CACAGACAACACGCACCCACACAGACACAGAGGGAAGGGGUUGGCAUGGGGACAGGGUGCACAGCAGGGCGGGGUAGGACCCCAGCCCCU,1.84
ACCAUGCAGGUGGGCAUCUUUGGGAAGUGGGGUAAGGGGGGGAUAGGGAGGGGGGUAACACUUUGGGAACAGGUGGUCCCAGGUCGUUUC,1.46
UAACUUUAGAGGAGGAUCUGAUGGAUAGGGCAGUGGACGUGGAUUUGGGGAUGGCUAUAAUGGGUAUGGAGGAGGACCUGGAGGUGGCAA,0.587
UGGCCCUGAUGGCAUGCGGGGAGGAAGAGGUGGCCUCAUGGAUCGUGGUGGUCCCGGUGGAAUGUUCAGAGGUGGCCGUGGUGGAGACAG,0.202
GCAGGAAGUAAAAACAAAUGGAAAUGCUUCGGAUAGUGGCAGGGGUGAAAGUUGCUAAGGAAAGGGUGGGAUGGGAGUGGGUAAAGAGUU,0.734
AAGUCCUGUGCUACACAUCGUAUGUACCGAAUCGGGAAAAGGGGAAAAGGGAAAAGGAAAGUAUUAUGUUACGCCGUUCGGAUCUGCACU,-0.532
ACCAUGCAGGUGGGCAUCUUUGGGAAGUGGGGGAAGGGGGGGAUAGGGAGGGGGGUAACACUUUGGGAACAGGUGGUCCCAGGUCGUUUC,1.47
UGGAAGGAACGAGCCAGGAAGAGGGACUGGAACCAUCUCAGAAGCCAUGCCCCUCAGGCUGGAACUUGCCCUGUCUCCUCGCAGAUGAGG,-1.72
AGUCCUGUGCUACACAUCGUAUGUACCGAAUCGGUUUUUGGUUUUUGGGUUUUUGGGAAAGUAUUAUGUUACGCCGUUCGGAUCUGCACU,-1.23

# Series 2
# Target: RNA binding protein fox-1 homolog 2, RRM domain, GST-SBP tag (RBFOX2, Homo sapiens, UniProt O43251-10, residues 100-194)
# Method: RNA Bind-n-Seq
# Molecule type: RNA
# Sample: in vitro
# Tested at: 365 nM
# Notes: natural RNA segment, single round, ends assumed
# Relative to: no-protein control
# Reading: higher = stronger binding
# All sequences stand within: GGGAGUUCUACAGUCCGACGAUC … UGGAAUUCUCGGGUGCCAA
# Target sequence (chain): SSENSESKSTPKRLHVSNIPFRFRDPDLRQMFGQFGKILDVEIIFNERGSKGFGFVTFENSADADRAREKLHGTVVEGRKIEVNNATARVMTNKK
Strand,RBNS enrichment (R)
CAGACCUCACCUUUGACUGCCAAAAUGACAGCACCCACCACCAUGAUGAUUGUCUGCAGGGCAUCUGUGUAUAUCACAGUGGCCAGGCCCCCUGCAAGAAACAAGGCUGC,0.746
GGGAAUCCUAGAGGGGAUGGAAGACGCGGGGAGUGAGCUGGGUGGGCCCUGCUAGCGAGAGAGGUCAACCCCGGUGGCCAGGGAACCCACUUCCAAGCGCAGGGACGCCG,0.821
ACUUUGAUUUCCUUGUUCAGGUCAGGGCCUGGAACGCCUGUGCGGGGAGGUCACUCAAUUCAAAAUUUUCUGUAUGAAAGCAUUUUUCACCAAAAUGAGCCUCAUCCCUU,0.434
GUAUUGAUGCUACCUCAGGUCUCUAAGAUGCACAUGAGUCAGCACAGGUGGCACUGUCUCUCCCUUGGUCCUUCAGGACCAUAGCAGAUCCUGCAGGUUGACACGAAGUA,0.723
GAUGCUGGCACGAGGUUUUUGUCCACUUUUUUCAUAUAUCUGUGUAUAAAAAAAUUGUUGUUUACUAUGGAAUUAGUAUUACAUUUUGAGGUAAACAAAAGAAUUUGUAU,0.761
CCUCACUGGAGACUACAAGUGGUGGGUCAGGUGGUCCUAGGACCCAGGGGAGGUUUAGGGGUCCUAUCUCCUGGGGGAAGGGGAGAUCUAAGAUGUCCCAGGUCCUGGGA,0.45
GGGGGGCACAGGAGCUGGGAGCCCCGUCUCCAGGAAAAGGAGAGGGGUUAAGAUGCACCGAGGCUGUAGCUGGGCUACUUGAUCUUGCUGAAAGUGUUUCUAAAGAUAGC,0.709
AGCAGGAAGGAGCUCUUUUCUGUUCCCAAGCCUCAGAACUCUUGAGCUGUGGCUUACUUGCUGUCUUCACCAGGUUCAAGCUCCGUGGGCCACACUGCUGCUGUGCCAAG,0.257
CCACGGAGAGCUCCAGGCAGAGCCCACAGUACCACAGUGUGCCCACACCACCGGUUACUGGCUCCUGGAUGAGGGGGCCAGAGAGGAGUGAAUAACUUCCCAGACACUUA,0.436
AUCCAGCACUGGUGAACUGAGCUGGGCAGGAAGGGAGAACUUGAAACAGAUUCAGGCCAGCCCAGCCAGGCCAACAGCACCUCCCCGCUGGGAAGAGAAGAGGGCCCAGC,0.33
UAUAGUUUUGAUAACCACAGUUUUAAUUCUUUUAUCUGUGCAUAAUAAAGAUAUGUAUCAAUUAUUAUUUAUGUCAUAUCUGGUCAUCACUAAACCCUCCCCUUGGUCUG,0.279
AGCUUUACAGAAAAUCAUUGUAAGACAAUUUAUUAAUUUGAGAAAGUCACCUUGACAGUUCUUUGCACACAAGUUUUACACCUCUCUGGAUUCGAAGUUUGUAUUGUAUU,1.71

# Series 3
# Target: Prothrombin, mature alpha-thrombin (F2, Homo sapiens, UniProt P00734)
# Method: aptamer microarray, sandwich
# Molecule type: DNA with 2'F-ANA
# Sample: in vitro
# Tested at: 200 nM
# Notes: whole 15-mer aptamer, many near background
# With: Cy3 exosite-II aptamer, 400 nM
# Reading: higher = stronger binding
# Strand: GGTTGGTGTGGTTGG
Modification,mean fluorescence intensity
2'F-ANA at 5 6 7 8 12 13 15,193 a.u.
2'F-ANA at 1 2 3 4 5 6 8 9 10 11 12 13 15,54.7 a.u.
2'F-ANA at 2 5 6 7 10 11 12 14 15,47.5 a.u.
2'F-ANA at 1 2 3 7 8 12 13 15,495 a.u.
2'F-ANA at 4 6 8 9 10 12,106 a.u.
2'F-ANA at 2 3 5 6 12 14,53.4 a.u.
2'F-ANA at 2 5 14,64.8 a.u.
2'F-ANA at 4 6 7 8 10 11 14 15,57.1 a.u.
2'F-ANA at 1 2 3 6 7 9 10 12 13 14,53.9 a.u.
2'F-ANA at 5 8 9 10 11 14 15,128 a.u.
2'F-ANA at 3 4 7 9 12,1040 a.u.
2'F-ANA at 2 3 5 6 7 10 11 13 14 15,51.7 a.u.
2'F-ANA at 4 6 7 9 11 12 13 14 15,85.1 a.u.
2'F-ANA at 1 2 8 10 12 14,46.4 a.u.
2'F-ANA at 1 2 9 10 13 14 15,46 a.u.
2'F-ANA at 1 5 7 10 12 13,87.7 a.u.
2'F-ANA at 2 3 5 8 9 12,251 a.u.
2'F-ANA at 1 3 4 5 6 7 8 11 14,47.8 a.u.

# Series 4
# Target: Sal-like protein 4, full length isoform B (SALL4, Homo sapiens, UniProt Q9UJQ4-2, residues 1-616)
# Method: universal PBM
# Molecule type: double-stranded DNA, one strand shown
# Sample: in vitro
# Tested at: not given
# Notes: 8-mer, flanks averaged, mean of replicates
# Reading: higher = stronger binding
Strand,E-score
TAATAGGA,0.313
CGAATGCC,-0.203
AGATTTCC,-0.0514
CTGTGTGC,-0.198
ACAAAACC,0.0598
CATGAAGA,0.109
AAGCTCTA,0.0393
AATTAGTG,0.167
GAGAGCAA,-0.0919
AGTCTGAA,-0.091
AGAAGAAT,0.168
CTTCCCTA,-0.0511
CGTACTAA,0.159
GCATCTAA,0.118
CGTTGATC,0.00633
AGGACTAT,0.042
ACCGAGGA,-0.0874
AAGTCTCC,-0.0253
CGTCCGCC,-0.307
CTGTAAGA,-0.0311
CCACCAGC,-0.133
TCCAAGCA,0.011
ACACAACT,0.109
AGTGTAGA,0.0198
CAGGACTG,-0.261

# Excerpt of the above (series 4):
Strand,E-score
AAGCTCTA,0.0393
AATTAGTG,0.167
GAGAGCAA,-0.0919
AGTCTGAA,-0.091
AGAAGAAT,0.168
CTTCCCTA,-0.0511
CGTACTAA,0.159
GCATCTAA,0.118
CGTTGATC,0.00633
AGGACTAT,0.042
ACCGAGGA,-0.0874
